Measurements gathered from unrelated publications.
Numbered parts are unrelated; each lists some results of a single study.
UniProt P11388, sequence (whole entry, looked up): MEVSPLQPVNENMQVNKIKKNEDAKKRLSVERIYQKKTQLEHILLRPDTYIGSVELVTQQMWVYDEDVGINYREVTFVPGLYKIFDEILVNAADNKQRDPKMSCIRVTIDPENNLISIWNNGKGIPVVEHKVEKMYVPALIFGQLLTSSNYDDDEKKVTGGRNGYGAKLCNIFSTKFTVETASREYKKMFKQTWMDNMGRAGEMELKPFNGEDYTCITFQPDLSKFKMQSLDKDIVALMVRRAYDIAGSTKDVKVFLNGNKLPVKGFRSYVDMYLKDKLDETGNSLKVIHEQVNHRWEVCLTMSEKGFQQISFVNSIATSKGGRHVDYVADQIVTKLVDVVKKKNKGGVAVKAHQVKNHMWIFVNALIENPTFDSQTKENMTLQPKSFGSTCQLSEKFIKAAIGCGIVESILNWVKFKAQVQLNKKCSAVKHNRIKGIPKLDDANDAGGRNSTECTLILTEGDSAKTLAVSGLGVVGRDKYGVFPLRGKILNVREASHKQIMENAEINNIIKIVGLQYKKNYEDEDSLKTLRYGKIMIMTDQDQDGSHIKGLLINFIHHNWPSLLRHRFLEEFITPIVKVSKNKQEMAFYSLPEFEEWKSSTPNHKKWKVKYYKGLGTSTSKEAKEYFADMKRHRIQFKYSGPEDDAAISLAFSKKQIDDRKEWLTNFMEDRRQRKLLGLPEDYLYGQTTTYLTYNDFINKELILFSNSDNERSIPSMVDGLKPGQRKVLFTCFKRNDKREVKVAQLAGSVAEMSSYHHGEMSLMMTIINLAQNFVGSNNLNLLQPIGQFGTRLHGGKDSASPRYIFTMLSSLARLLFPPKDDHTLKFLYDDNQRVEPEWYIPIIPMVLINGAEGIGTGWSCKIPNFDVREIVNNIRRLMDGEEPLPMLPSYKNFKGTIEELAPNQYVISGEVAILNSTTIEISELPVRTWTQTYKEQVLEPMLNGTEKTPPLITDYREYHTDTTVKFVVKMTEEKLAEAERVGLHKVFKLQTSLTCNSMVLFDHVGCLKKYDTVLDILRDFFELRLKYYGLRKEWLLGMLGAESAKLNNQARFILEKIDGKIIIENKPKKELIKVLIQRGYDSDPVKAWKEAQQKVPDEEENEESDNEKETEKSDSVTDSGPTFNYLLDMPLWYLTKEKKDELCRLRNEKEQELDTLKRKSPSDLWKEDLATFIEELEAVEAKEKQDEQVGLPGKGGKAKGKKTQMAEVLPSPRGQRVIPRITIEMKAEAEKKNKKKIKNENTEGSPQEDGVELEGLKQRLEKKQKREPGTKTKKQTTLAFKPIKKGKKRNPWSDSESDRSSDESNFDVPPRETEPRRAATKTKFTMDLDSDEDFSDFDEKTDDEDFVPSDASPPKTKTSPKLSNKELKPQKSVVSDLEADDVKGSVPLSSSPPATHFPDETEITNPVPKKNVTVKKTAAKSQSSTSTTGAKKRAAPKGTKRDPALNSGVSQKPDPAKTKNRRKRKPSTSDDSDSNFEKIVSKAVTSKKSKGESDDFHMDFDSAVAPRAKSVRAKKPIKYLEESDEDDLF

Study 1
Compound: CO/N=C(\C(=O)N[C@@H]1C(=O)N2C(C(=O)O)=C(COC(C)=O)CS[C@H]12)c1csc(N)n1
Organism: Pseudomonas aeruginosa
Endpoint: MIC
clinical isolate RKI-No_613/16: > 16 µg/mL
clinical isolate RKI-No_578/15: > 16 µg/mL
clinical isolate RKI-No_84/15: > 16 µg/mL
clinical isolate RKI-No_253/15: > 16 µg/mL

Mixed results
COC(=O)Nc1c(N)nc(-c2nn(Cc3ccccc3F)c3ncc(F)cc23)nc1N
Cmax (healthy male humans, plasma; 2.5 mg, phase I DDI study, alone): 82.8 ng/mL

COc1cc([C@@H]2c3cc4c(cc3[C@@H](O[C@@H]3O[C@@H]5CO[C@@H](C)O[C@H]5[C@H](O)[C@H]3O)[C@H]3COC(=O)[C@H]23)OCO4)cc(OC)c1O
inhibition (TOP2A (Homo sapiens, UniProt P11388); DNA decatenation, inhibitor, gel-based decatenation; 31.25 µM): 31.8%

CC1COc2ccccc2N1C(=O)C(Cl)Cl (stereo not drawn)
intrinsic clearance (cytosolic glutathione S-transferase; substrate depletion; rhesus monkey, female, liver cytosol; 5 µM, pH 7.4, together with: glutathione): 1400 µL/min/mg

N#CCC1CCN(c2nc(Nc3ccc(N4CCC(O)CC4)cc3)c3c(=O)[nH]ncc3n2)CC1
GIF level difference (vs placebo, Olink multiplex; human, serum; 40 mg, day 15, unit not given; baseline: placebo): 1.35

Fc1ccccc1Cc1nc(-c2nc(C(F)(F)F)n[nH]2)cn2ccnc12
subjects with adverse events (measured: Nasopharyngitis; healthy humans; oral, 10 mg, fed, single dose): 0%

A few entries again (mixed results):
Fc1ccccc1Cc1nc(-c2nc(C(F)(F)F)n[nH]2)cn2ccnc12
subjects with adverse events (measured: Nasopharyngitis; healthy humans; oral, 10 mg, fed, single dose): 0%
